Results pooled from the literature.
Protocols differ between the studies behind these lines.

SMILES | assay | system | conditions | how to read | measurement | value
CNC(=O)c1ccc(-c2cnc3ncc(Cc4ccc5ncccc5c4)n3n2)cc1F | item: Insomnia | gastric cancer patients | oral, 600 mg twice daily, expansion cohort, grade 3-4 |  | patients with adverse event | 0%
NC(=O)N1c2ccccc2C=Cc2ccccc21 |  | male patients | oral, dose not given, on-treatment adverse events |  | patients with eye pain | 7%
FC(F)(F)c1ccc(CNc2ccc(Cc3c[nH]c4ncc(Cl)cc34)cn2)cn1 | item: at least 1 adverse event | non-TGCT solid tumour patients | oral, 1000 mg/day, all grades |  | patients with treatment-related adverse event | 87%
Cc1cc(-c2nnc(N)nc2-c2ccc(F)cc2)cc(Cl)n1 | item: Hyperthyroidism | IO-naive colorectal cancer patients | oral, dose not given, treatment-related, grade 2 |  | patients with immune-mediated AE | 0%
C[C@@H](c1ccc2nccn2c1)n1nnc2ncc(-c3cnn(C)c3)nc21 | item: Pneumonitis grade ≥3 | EGFR-mutant MET-altered NSCLC | oral, study |  | patients with treatment-related AEs | 0%
COc1cc(Nc2ncc3c(n2)-c2ccc(Cl)cc2C(c2c(F)cccc2OC)=NC3)ccc1C(=O)O | item: Pruritus, grade 1 | cancer patients, phase 1/2 | oral, dose not given, with: pembrolizumab |  | patients with adverse event | 17%
C[C@@H](Nc1cc(F)cc(F)c1)c1cc(C(=O)N(C)C)cc2c(=O)cc(N3CCOCC3)oc12 | item: Sepsis | advanced solid tumour patients | oral, dose not given, dose expansion |  | patients discontinuing for AE | 0%
CC(C)C[C@H](NC(=O)CNC(=O)c1cc(Cl)ccc1Cl)B(O)O | item: Dizziness, all grades | newly diagnosed multiple myeloma patients | oral, dose not given, maintenance phase, new onset, cycle 17 or later |  | patients with adverse event | 11%
C=CC(=O)NC1CCN(c2ncc3ncnc(Nc4ccc(Oc5ccc6c(c5)ncn6C)c(C)c4)c3n2)CC1 |  | male patients | oral, dose not given, on-treatment adverse events |  | patients with abdominal discomfort | 0%
CCO[C@H]1CCN(Cc2c(OC)cc(C)c3[nH]ccc23)[C@H](c2ccc(C(=O)O)cc2)C1 | item: Cough | PNH patients, active haemolysis | oral, 100 mg twice daily, extension phase |  | patients with adverse event | 20%
O=C(Nc1nc2cccc(-c3ccc(CN4CCS(=O)(=O)CC4)cc3)n2n1)C1CC1 |  | rheumatoid arthritis patients | oral, 200 mg once daily, 4 weeks, regardless of relatedness |  | patients with skin disorders | 8.3%
CCOc1c([C@H](C)n2nc(C)c3c(N)ncnc32)cc(Cl)c(F)c1[C@@H]1CNC(=O)C1 | item: QTcF change above 60 ms | previously treated B-cell malignancy | oral, 10 mg once daily, baseline QTcF ≤450 ms | baseline: baseline | patients | 0%
COc1ccc([C@@H](O)c2cc(-c3ncnc4cc(N5CCOCC5)ccc34)c(F)cc2Cl)nn1 |  | locally advanced rectal cancer patients | 150 mg, drug-related adverse events, with: capecitabine and radiotherapy |  | patients with diarrhea | 33%
Cc1cc(NC2CCN(C(=O)OC3CCN(C(=O)/C=C/CN(C)C)C3)CC2)n2ncc(C(C)C)c2n1 (stereo not shown) | CTCAE v4.0, item: Dyspnea | patients with advanced solid tumours | oral, dose not given, all schedules, grade 3 or higher |  | patients with TEAE | 6%
C=CC(=O)Nc1cc(Nc2nccc(-c3cn(C)c4ccccc34)n2)c(OC)cc1N(C)CCN(C)C | item: Pain grade ≥3 | EGFR-mutant MET-altered NSCLC | oral, study |  | patients with treatment-related AEs | 0%
CNC(=O)c1cc(Oc2ccc(NC(=O)Nc3cc(C(C)(C)C)nn3-c3ccc4ncccc4c3)c(F)c2)ccn1 |  | patients | oral, dose not given, cycles 1 and 2, High AUC subgroup |  | patients with cardiac disorders | 17%

For quick reference, copied from above:
SMILES | assay | system | conditions | how to read | measurement | value
CNC(=O)c1ccc(-c2cnc3ncc(Cc4ccc5ncccc5c4)n3n2)cc1F | item: Insomnia | gastric cancer patients | oral, 600 mg twice daily, expansion cohort, grade 3-4 |  | patients with adverse event | 0%
